# Earlier results that unrelated publications cite.
# Each line is one published result; not all experiments were run side by side. “And” joins repeats or separate records; there may be more than shown. ± marks the error that the study gave.
Compound,target or system,assay,system,setting,scale,measurement,result
N/C(CC(O)c1cc2c(F)cc(F)cc2c2cc(C(F)(F)F)ccc12)=N\c1ccc(F)cc1 (stereo not drawn),Plasmodium falciparum,parasite growth,Dd2 PfcytB I22L (ELQ-300-resistant),,,IC50,14 nM
Cc1c(CN(C)C(=O)/C=C/c2cnc3c(c2)CCC(=O)N3)oc2ccccc12,Staphylococcus aureus,,MSSA 29213,"32 x MIC, 4 h, 35 °C",,post-antibiotic effect,0.1 ± 0.1 h
COc1ccc(OC)c(C=CC(=O)NC2CCC(CN3CCC(c4c[nH]c5ccccc45)CC3)CC2)c1 (stereo not drawn),Plasmodium falciparum,whole cell extended time,3D7,72 h,,IC50,650 nM
Cc1c(S(=O)(=O)N2CCc3[nH]ncc3C2)cc(C(=O)NCc2c(F)ccc3occc23)n1C,coronaviruses,antiviral activity,,,,EC50,~10 nM
CCC[C@@H]1C[C@@H](C(=O)N[C@@H]([C@H]2O[C@H](SC)[C@H](O)[C@@H](O)[C@H]2O)[C@H](C)Cl)N(C)C1,Streptococcus pneumoniae,E-test,strain 700676 serotype 14 resistant,,,MIC,0.12 µg/mL
Cc1ncc([N+](=O)[O-])n1CCO,Trichomonas gallinae,MTT,,,,minimal lethal concentration,25 µg/mL
[2H]C([2H])([2H])C1(C([2H])([2H])[2H])NC(=O)N(c2ccc(F)c(C(F)(F)F)c2)C1=O,Schistosoma mansoni,,"juvenile, infected mice","oral, 100 mg/kg single dose",,worm burden reduction,62 to 100% and 86%
CC(=O)[C@H]1CC[C@H]2[C@@H]3CC[C@H]4C[C@@H](O)CC[C@]4(C)[C@H]3CC[C@]12C,,protection in 6 Hz seizure test,mouse NIH Swiss male,"intraperitoneal, 15 min pretreatment",,ED50,> 100 mg/kg
C/C(=C\C(=O)OCCCCCCCCC(=O)O)C[C@@H]1OC[C@H](C[C@@H]2O[C@H]2[C@@H](C)[C@H](C)O)[C@@H](O)[C@H]1O,Staphylococcus aureus,,MRSA high-level resistant,,,MIC,> 1020 µM
O=C(O)[C@@H](c1ccccc1)[C@@H]1CCCCN1,,,"human, by CES1 genotype, plasma","oral, 10 mg methylphenidate, single dose, median",,half-life,6.7 h
Cc1cn(-c2ccc3c(c2)CN(c2ncc(Cc4ccc(-n5cccn5)cc4)s2)CC3)c(C)n1,human cytomegalovirus,viral replication,,,,EC50,466 ± 20.3 nM
CC[C@H](C)[C@H](NC(=O)[C@H](CCCCN)NC(=O)[C@H](CCCCN)NC(=O)[C@H](CC(C)C)NC(=O)[C@H](CCCCN)NC(=O)[C@H](CCCCN)NC(=O)[C@H](Cc1ccccc1)NC(=O)[C@H](Cc1ccccc1)NC(=O)[C@H](CCCNC(=N)N)NC(=O)[C@H](CCCNC(=N)N)NC(=O)[C@@H](NC(=O)[C@H](CCCCN)NC(=O)[C@H](CCCNC(=N)N)NC(=O)[C@@H](NC(=O)[C@@H](N)Cc1ccc(O)cc1)[C@@H](C)CC)[C@@H](C)CC)C(=O)N[C@@H](CC(C)C)C(=O)N[C@@H](CCCCN)C(=O)N[C@@H](CCCCN)C(N)=O,Staphylococcus aureus,,MRSA,,range over,MIC,3.33 to 26.6 µM
COc1cccc(N2CCN(C3=Nc4c(F)cccc4[C@H](CC(=O)O)N3c3cc(C(F)(F)F)ccc3OC)CC2)c1,human cytomegalovirus,viral replication,UL56 C325Y mutant,,,EC50,25000 nM
CCCCCCCSc1ccc(CC(C)NCC(O)c2cccc(Cl)c2)cc1 (stereo not drawn),Plasmodium falciparum,whole cell extended time,3D7,72 h,,IC50,180 nM
CC[C@H]1OC(=O)[C@H](C)[C@@H](O[C@H]2C[C@@](C)(OC)[C@@H](O)[C@H](C)O2)[C@H](C)[C@@H](O[C@@H]2O[C@H](C)C[C@H](N(C)C)[C@H]2O)[C@](C)(O)C[C@@H](C)C(=O)[C@H](C)[C@@H](O)[C@]1(C)O,Streptococcus pneumoniae,E-test,strain 700678 serotype 19A resistant,,,MIC,> 32 µg/mL
O=C(O)C(F)(F)C(F)(F)C(F)(F)C(F)(F)C(F)(F)C(F)(F)F,CYP2D6,inhibitor,,Tox21 screening,,IC50,inactive
Nc1nc(O)c2ncn(COC(CO)CO)c2n1,human cytomegalovirus,viral replication,UL97 A549V mutant,,,EC50,9900 nM
CN[C@H](CC(C)C)C(=O)N[C@H]1C(=O)N[C@@H](CC(N)=O)C(=O)N[C@H]2C(=O)N[C@H]3C(=O)N[C@H](C(=O)N[C@H](C(=O)O)c4cc(O)cc(O)c4-c4cc3ccc4O)[C@H](O)c3ccc(c(Cl)c3)Oc3cc2cc(c3O[C@@H]2O[C@H](CO)[C@@H](O)[C@H](O)[C@H]2O[C@H]2C[C@](C)(N)[C@H](O)[C@H](C)O2)Oc2ccc(cc2Cl)[C@H]1O,Staphylococcus aureus,,clinical isolates,,,MIC,1 to 3 µM
CN[C@H](CC(C)C)C(=O)N[C@H]1C(=O)N[C@@H](CC(N)=O)C(=O)N[C@H]2C(=O)N[C@H]3C(=O)N[C@H](C(=O)N[C@H](C(=O)O)c4cc(O)cc(O)c4-c4cc3ccc4O)[C@H](O)c3ccc(c(Cl)c3)Oc3cc2cc(c3O[C@@H]2O[C@H](CO)[C@@H](O)[C@H](O)[C@H]2O[C@H]2C[C@](C)(N)[C@H](O)[C@H](C)O2)Oc2ccc(cc2Cl)[C@H]1O,Enterobacter aerogenes,,ATCC 35029,,,MIC,> 128 µg/mL
CO/N=C(\C(=O)N[C@@H]1C(=O)N2C(C(=O)O)=C(COC(C)=O)CS[C@H]12)c1csc(N)n1,Streptococcus pneumoniae,E-test,strain 700676 serotype 14 resistant,,,MIC,0.03 µg/mL
COc1ccc(-c2ccn(CC[C@](C)(C(=O)NO)S(C)(=O)=O)c(=O)c2)c(F)c1,Pseudomonas aeruginosa,,efflux-pump mutant,,,MIC,0.018 µM
O=C(N[C@H](CO)[C@H](O)c1ccc([N+](=O)[O-])cc1)C(Cl)Cl,Streptococcus pneumoniae,E-test,strain 700678 serotype 19A resistant,,,MIC,32 µg/mL
CC1(C)NC(=O)N(c2ccc(F)c(C(F)(F)F)c2)C1=O,Fasciola hepatica,,,concentration not given,,anthelmintic activity,inactive
CCCCCOc1ccc(-c2ccc(-c3ccc(C(=O)N[C@H]4C[C@@H](O)[C@@H](O)NC(=O)[C@@H]5[C@@H](O)[C@@H](C)CN5C(=O)[C@H]([C@@H](C)O)NC(=O)[C@H]([C@H](O)[C@@H](O)c5ccc(O)cc5)NC(=O)[C@@H]5C[C@@H](O)CN5C(=O)[C@H]([C@@H](C)O)NC4=O)cc3)cc2)cc1,,,moderate hepatic impairment patients,50 mg single dose,,volume of distribution,36.5 ± 8 L
COC(=O)[C@@H]1C[C@H](OC(C)=O)C(=O)[C@H]2[C@@]1(C)CC[C@H]1C(=O)O[C@H](c3ccoc3)C[C@]21C,kappa opioid receptor Y313F,,,,,Ki,63.3 nM and 37 nM
O=S(=O)([O-])C(F)(F)C(F)(F)C(F)(F)C(F)(F)C(F)(F)C(F)(F)C(F)(F)C(F)(F)F.[K+],CYP2D6,inhibitor,,Tox21 screening,,IC50,inactive
CC(C)Nc1nc2cc(Cl)c(Cl)cc2n1[C@H]1O[C@@H](CO)[C@H](O)[C@@H]1O,human cytomegalovirus,viral replication,UL97 H411Y mutant,,,EC50,2100 nM
CC(C)CCCCCCCCC[C@@H]1CC(=O)N[C@@H](CCC(=O)O)C(=O)N[C@@H](CC(C)C)C(=O)N[C@H](CC(C)C)C(=O)N[C@@H](C(C)C)C(=O)N[C@@H](CC(=O)O)C(=O)N[C@H](CC(C)C)C(=O)N[C@@H](CC(C)C)C(=O)O1,porcine epidemic diarrhea virus,,epithelial cells,,range over,antiviral concentration range,15 to 50 µg/mL
CC1(C)S[C@@H]2[C@H](NC(=O)Cc3ccccc3)C(=O)N2[C@H]1C(=O)O,Streptococcus pneumoniae,E-test,strain 700678 serotype 19A resistant,,,MIC,4 µg/mL
CCN(CC)CCO[C@H]1CC[C@@]2(C)C(=CC[C@@H]3[C@@H]2CC[C@]2(C)C(=O)CC[C@@H]32)C1,dengue virus,viral replication,A549 replicon cells,,,EC50,6200 nM
